# Results pooled from the literature.
# Sequence of UniProt Q92630 (whole entry, looked up): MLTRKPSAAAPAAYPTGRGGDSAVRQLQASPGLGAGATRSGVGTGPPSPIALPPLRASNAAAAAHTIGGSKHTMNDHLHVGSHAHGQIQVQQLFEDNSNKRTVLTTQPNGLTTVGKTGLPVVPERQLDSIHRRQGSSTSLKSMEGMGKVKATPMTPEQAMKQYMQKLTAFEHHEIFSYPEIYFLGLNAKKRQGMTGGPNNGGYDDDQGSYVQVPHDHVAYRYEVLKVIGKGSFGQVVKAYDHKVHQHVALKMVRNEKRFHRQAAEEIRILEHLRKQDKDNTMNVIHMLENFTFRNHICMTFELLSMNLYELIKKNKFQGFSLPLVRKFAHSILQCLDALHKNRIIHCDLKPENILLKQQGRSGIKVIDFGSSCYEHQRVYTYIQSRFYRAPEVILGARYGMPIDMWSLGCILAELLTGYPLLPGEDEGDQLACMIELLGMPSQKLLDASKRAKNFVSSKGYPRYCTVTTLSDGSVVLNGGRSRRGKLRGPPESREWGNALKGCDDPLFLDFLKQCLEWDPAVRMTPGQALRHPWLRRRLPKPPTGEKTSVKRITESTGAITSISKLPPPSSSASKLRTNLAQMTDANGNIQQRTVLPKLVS
# Sequence of UniProt Q8TDR2 (whole entry, looked up): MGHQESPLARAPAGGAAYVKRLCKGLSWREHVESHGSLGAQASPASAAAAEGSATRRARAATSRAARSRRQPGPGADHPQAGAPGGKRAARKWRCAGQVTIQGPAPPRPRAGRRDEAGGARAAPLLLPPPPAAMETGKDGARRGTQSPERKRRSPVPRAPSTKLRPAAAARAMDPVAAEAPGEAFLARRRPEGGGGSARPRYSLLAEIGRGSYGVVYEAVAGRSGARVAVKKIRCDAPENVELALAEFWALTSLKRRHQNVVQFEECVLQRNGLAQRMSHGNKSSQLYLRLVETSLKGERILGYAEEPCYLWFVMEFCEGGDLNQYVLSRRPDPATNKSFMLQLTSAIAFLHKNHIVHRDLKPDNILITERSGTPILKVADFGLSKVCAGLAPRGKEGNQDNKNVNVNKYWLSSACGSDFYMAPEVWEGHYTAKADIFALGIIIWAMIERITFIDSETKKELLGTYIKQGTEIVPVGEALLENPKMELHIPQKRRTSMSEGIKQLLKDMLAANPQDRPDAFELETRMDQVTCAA
# Sequence of UniProt P80192 (whole entry, looked up): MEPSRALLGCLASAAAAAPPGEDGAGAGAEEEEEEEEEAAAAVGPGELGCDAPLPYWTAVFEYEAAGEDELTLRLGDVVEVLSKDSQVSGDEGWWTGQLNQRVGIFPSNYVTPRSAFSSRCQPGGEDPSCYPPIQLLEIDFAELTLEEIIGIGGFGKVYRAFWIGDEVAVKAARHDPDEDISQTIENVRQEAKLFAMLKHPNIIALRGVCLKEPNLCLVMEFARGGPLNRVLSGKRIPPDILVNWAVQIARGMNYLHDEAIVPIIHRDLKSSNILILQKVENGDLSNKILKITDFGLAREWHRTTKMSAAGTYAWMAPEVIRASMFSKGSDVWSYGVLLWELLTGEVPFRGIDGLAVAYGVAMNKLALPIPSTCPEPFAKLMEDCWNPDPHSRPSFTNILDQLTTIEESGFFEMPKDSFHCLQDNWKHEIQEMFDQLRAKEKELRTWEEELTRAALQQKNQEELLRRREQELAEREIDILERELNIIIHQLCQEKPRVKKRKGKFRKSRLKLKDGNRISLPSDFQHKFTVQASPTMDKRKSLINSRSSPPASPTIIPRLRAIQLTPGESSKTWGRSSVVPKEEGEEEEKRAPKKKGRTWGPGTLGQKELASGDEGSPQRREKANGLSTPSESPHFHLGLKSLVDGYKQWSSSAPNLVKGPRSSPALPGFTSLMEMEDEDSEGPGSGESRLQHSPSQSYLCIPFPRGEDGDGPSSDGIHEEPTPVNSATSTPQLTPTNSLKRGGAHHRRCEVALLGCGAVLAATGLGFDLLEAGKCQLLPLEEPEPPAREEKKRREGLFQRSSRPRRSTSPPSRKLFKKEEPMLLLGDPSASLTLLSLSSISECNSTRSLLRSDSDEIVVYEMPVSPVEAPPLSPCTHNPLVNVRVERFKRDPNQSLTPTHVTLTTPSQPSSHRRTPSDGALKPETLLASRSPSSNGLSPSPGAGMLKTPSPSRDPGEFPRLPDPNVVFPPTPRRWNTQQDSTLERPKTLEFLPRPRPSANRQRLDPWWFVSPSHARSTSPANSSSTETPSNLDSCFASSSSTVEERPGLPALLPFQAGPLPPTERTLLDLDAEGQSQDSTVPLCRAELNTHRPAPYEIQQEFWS
# Sequence of UniProt P31152 (whole entry, looked up): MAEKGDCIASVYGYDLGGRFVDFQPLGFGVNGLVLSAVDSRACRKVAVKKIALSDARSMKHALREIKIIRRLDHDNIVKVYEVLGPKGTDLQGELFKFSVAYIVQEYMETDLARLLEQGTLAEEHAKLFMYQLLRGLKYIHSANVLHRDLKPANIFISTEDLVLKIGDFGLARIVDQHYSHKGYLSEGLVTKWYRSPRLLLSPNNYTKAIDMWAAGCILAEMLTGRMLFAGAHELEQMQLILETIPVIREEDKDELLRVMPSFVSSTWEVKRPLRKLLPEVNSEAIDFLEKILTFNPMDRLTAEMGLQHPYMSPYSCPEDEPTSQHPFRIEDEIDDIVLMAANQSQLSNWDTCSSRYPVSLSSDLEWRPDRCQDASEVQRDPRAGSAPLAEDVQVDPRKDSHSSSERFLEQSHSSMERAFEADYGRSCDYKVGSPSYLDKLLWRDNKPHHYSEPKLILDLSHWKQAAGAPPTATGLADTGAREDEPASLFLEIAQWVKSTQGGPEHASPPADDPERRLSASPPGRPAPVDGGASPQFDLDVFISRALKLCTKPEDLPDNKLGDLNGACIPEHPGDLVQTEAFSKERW
SMILES,tested on,assay,conditions,endpoint,result
CNc1ncc2c(/C=C/C(=O)N3CCC(OC)CC3)nn(Cc3ccccc3)c2n1,FLO-1,"cell growth or viability, resazurin",5 days,EC50,8050 nM
Cc1cc([C@@H](C)Nc2ccccc2C(=O)O)c2nc(N3CCC(F)(F)CC3)c(C#N)c(=O)n2c1,"MAP3K9 (Homo sapiens, UniProt P80192)","binding, competition with immobilised ligand",10 µM,remaining binding,100%
CC(=NNC(=S)Nc1ccccc1)c1ccc(Nc2nnc(-c3ccc(Cl)cc3)c3ccccc23)cc1,MCF7,"cell growth or viability, MTT",1.25 µM,cell death,72.5%
Cc1cccc(N(O)N=Nc2ccc(S(=O)(=O)Nc3onc(C)c3C)cc2)c1,,ABTS scavenging,240 µg/mL,inhibition,69.2%
CC(=NNC(=O)c1ccccc1Br)c1ccc(Nc2nnc(-c3ccc(Cl)cc3)c3ccccc23)cc1,MCF7,"cell growth or viability, MTT",10 µM,cell death,94.2%
Cc1[nH]c(C)c(-c2ccc(Oc3ccc(Cl)cc3)cc2)c(=O)c1Br,HEK293,cell growth or viability,,IC50,> 10000 nM
S=C(Nc1ccccc1)Nc1ccc(Oc2nnc(-c3ccc(Cl)cc3)c3ccccc23)cc1,MCF7,"cell growth or viability, MTT",1.25 µM,cell death,43.3%
C[C@@H]1CC[C@@H]([C@](C)(O)CNCc2cccc3ccccc23)[C@H](OCc2ccccc2)C1,A2780,"cell growth or viability, MTT","10 µM, 72 h",inhibition,28.3%
Cc1ccc(C(CS(=O)(=O)c2ccccc2)=NNc2nc(C)c(N=Nc3cccc(C)c3)s2)cc1,WM 266-4,"cell growth or viability, MTT","25 µM, 48 h",viability,40.3%
CN(C)CCNC(=O)c1ccc(-c2nc3ccc4[nH]ncc4c3c3c2CCCC3)c(F)c1,Kasumi 1,cell growth or viability,72 h,GI50,727 nM
O=C1O[C@H]([C@@H](O)CO)C(O)=C1O,,ABTS scavenging,150 µg/mL,inhibition,99%
Cc1c(Cc2ccccc2)c(=O)oc2c(C)c(OCC(=O)NN=Cc3ccco3)ccc12,PC-3,"cell growth or viability, MTT",1000 µg/mL,viability,7.23%
C=C(C)[C@@H]1CC[C@@H](C)C[C@H]1OCc1ccccc1,A2780,"cell growth or viability, MTT","30 µM, 72 h",inhibition,42.9%
COc1ccccc1Cn1nc(-c2ccc(CO)o2)c2ccccc21,RBE,"cell growth or viability, ATP luminescence",,IC50,447 nM
COc1cc(-c2cncc3c2CN(C)Cc2cc(N4CCNCC4)ccc2-3)cc(OC)c1OC,"DYRK2 (Homo sapiens, UniProt Q92630)","enzyme activity, inhibitor",1 µM,remaining activity,96%
CC(=NNC(=O)c1ccc(N)cc1)c1ccc(Nc2nnc(-c3ccc(Cl)cc3)c3ccccc23)cc1,MCF7,"cell growth or viability, MTT","10 µM, 24 h",viability,7.84%
CCCCC(=O)Nc1ccc(-c2ccc3ncn(CCC)c(=O)c3c2)cn1,"MAPK4 (Homo sapiens, UniProt P31152)","binding, competition with immobilised ligand",0.5 µM,remaining binding,100%
Cc1[nH]c(C)c(-c2ccc(-c3ccccc3Cl)nc2)c(=O)c1Br,HEK293,cell growth or viability,,IC50,> 10000 nM
CNc1ncc2c(/C=C/C(=O)N3CCC(N(C)C)CC3)nn(CC3CCCC3)c2n1,FLO-1,"cell growth or viability, resazurin",5 days,EC50,> 30000 nM
Cc1[nH]c(C)c([N+](=O)[O-])c(=O)c1-c1ccc(Oc2ccc(OC(F)(F)F)cc2)cc1,HEK293,cell growth or viability,,IC50,> 10000 nM
C=CC(=O)N1CCC(COCC(=O)N2CCN(c3nc(-c4cnc(N)nc4C(F)F)nc(N4CCOC[C@@H]4C)n3)CC2)CC1,"STK35 (Homo sapiens, UniProt Q8TDR2)","binding, competition with immobilised ligand",1 µM,remaining binding,94%
O=C(NC(=O)c1ccccc1O)c1ccccc1O,HEK293,cell growth or viability,,IC50,> 10000 nM
CC(=NNC(=O)c1ccccc1Cl)c1ccc(Nc2nnc(-c3ccc(Cl)cc3)c3ccccc23)cc1,MCF7,"cell growth or viability, MTT",10 µM,cell death,95.3%
CCN(Cc1cccc(OC)c1)c1ccc(CO)c(Cl)c1,RBE,"cell growth or viability, ATP luminescence","46 µM, 72 h",inhibition,82%
CC(=NNC(=O)c1ccccc1O)c1ccc(Nc2nnc(-c3ccc(Cl)cc3)c3ccccc23)cc1,MCF7,"cell growth or viability, MTT","0.625 µM, 24 h",viability,94.6%
CCNC(=S)NNC(=O)COc1ccc2c(C)c(CC)c(=O)oc2c1C,PC-3,"cell growth or viability, MTT",62.5 µg/mL,viability,93.2%
CO[C@H]1C[C@@H]2CC[C@@H](C)[C@@](O)(O2)C(=O)C(=O)N2CCCC[C@H]2C(=O)O[C@H]([C@H](C)C[C@@H]2CC[C@@H](OC(=O)C(C)(CO)CO)[C@H](OC)C2)CC(=O)[C@H](C)/C=C(\C)[C@@H](O)[C@@H](OC)C(=O)[C@H](C)C[C@H](C)/C=C/C=C/C=C/1C,MB002,cell growth or viability,7 days,IC50,52 nM
Cc1c(Cc2ccccc2)c(=O)oc2c(C)c(OCC(=O)NN=Cc3ccc([N+](=O)[O-])cc3)ccc12,PC-3,"cell growth or viability, MTT",250 µg/mL,viability,8.2%
Nc1ccccc1NC(=O)c1ccc(CNc2nccc(-c3cccnc3)n2)cc1,MB002,cell growth or viability,7 days,IC50,35.9 nM
O=C(Nc1ccc(Oc2nnc(-c3ccc(Cl)cc3)c3ccccc23)cc1)c1cccc([N+](=O)[O-])c1,MCF7,"cell growth or viability, MTT","1.25 µM, 24 h",viability,3.63%

# A few entries again:
SMILES,tested on,assay,conditions,endpoint,result
Nc1ccccc1NC(=O)c1ccc(CNc2nccc(-c3cccnc3)n2)cc1,MB002,cell growth or viability,7 days,IC50,35.9 nM
O=C(Nc1ccc(Oc2nnc(-c3ccc(Cl)cc3)c3ccccc23)cc1)c1cccc([N+](=O)[O-])c1,MCF7,"cell growth or viability, MTT","1.25 µM, 24 h",viability,3.63%
